Published values collected from several papers.
Each line is one published result; not all experiments were run side by side. “And” joins repeats or separate records; there may be more than shown. ± gives the spread as reported.

With `CN[C@@H]1COc2c(S(=O)(=O)NC(=O)Nc3c4c(cc5c3CCC5)CCC4)cnn2C1` the inhibition was 97.1% (measured: IL-1β; human participants, whole blood ex vivo; 150 mg single dose, 8 h, added: LPS/ATP; reference: baseline).
For `CC[C@H](C)[C@H](NC(=O)[C@H](Cc1ccccc1)NC(=O)[C@H](CCC(=O)O)NC(=O)[C@H](CCCCN)NC(=O)[C@H](C)NC(=O)[C@H](C)NC(=O)[C@H](CCC(N)=O)NC(=O)CNC(=O)[C@H](CCC(=O)O)NC(=O)[C@H](CC(C)C)NC(=O)[C@H](Cc1ccc(O)cc1)NC(=O)[C@H](CO)NC(=O)[C@H](CO)NC(=O)[C@@H](NC(=O)[C@H](CC(=O)O)NC(=O)[C@H](CO)NC(=O)[C@@H](NC(=O)[C@H](Cc1ccccc1)NC(=O)[C@@H](NC(=O)CNC(=O)[C@H](CCC(=O)O)NC(=O)C(C)(C)NC(=O)[C@@H](N)Cc1cnc[nH]1)[C@@H](C)O)[C@@H](C)O)C(C)C)C(=O)N[C@@H](C)C(=O)N[C@@H](Cc1c[nH]c2ccccc12)C(=O)N[C@@H](CC(C)C)C(=O)N[C@H](C(=O)N[C@@H](CCCNC(=N)N)C(=O)NCC(=O)N[C@@H](CCCNC(=N)N)C(=O)NCC(=O)NCC(=O)NCC(=O)NCC(=O)N[C@@H](CO)C(=O)NCC(=O)NCC(=O)NCC(=O)NCC(=O)N[C@@H](CO)C(=O)NCC(=O)NCC(=O)NCC(=O)NCC(=O)N[C@@H](CO)C(=O)NCC(=O)N[C@@H](CSC(CC(=O)O)C(=O)NCCC(=O)NCC(=O)NCCOCCOCCOCCOCCC(=O)N[C@@H](CCCCNC(=O)CC[C@H](NC(=O)CCCCCCCCCCCCCCCCC(=O)O)C(=O)O)C(=O)NCCOCCOCCOCCOCCC(=O)N[C@@H](CCCCNC(=O)CC[C@H](NC(=O)CCCCCCCCCCCCCCCCC(=O)O)C(=O)O)C(=O)OC)C(=O)O)C(C)C` (stereo partly shown), “blood glucose AUC(0-96)” read 5640 ± 579% (db/db mouse; subcutaneous, 100 nmol/kg single, 0 to 96 h; reference: baseline).
`CSCCNc1nc(SCCC(F)(F)F)nc2c1ncn2[C@@H]1O[C@H](COP(=O)(O)OP(=O)(O)C(Cl)(Cl)P(=O)(O)O)[C@@H](O)[C@H]1O` — result for “patients with inhibition above threshold”: 0% (platelet aggregation, light transmission aggregometry; human patients, platelet-rich plasma; dose not given, 4 to 6 h, inhibition threshold 90%, added: TRAP 15 µM).
`N#Cc1ccn2c(-c3ccncc3)c(-c3ccc(F)cc3)nc2c1` — result for “log2 fold change”: -0.234 (kinase binding, competitor, MIB/MS competition, measured: RIO2; Candida albicans cell lysate; 100 nM; reference: DMSO).
With `Cn1cc([C@H]2C[C@H]3CSC(N)=N[C@@]3(c3ccc(F)cc3F)CO2)cn1` the Aβ40 level was 2 ng/mL (measured: Aβx-40; Mus musculus wild-type, cerebrospinal fluid; subcutaneous, 10 mg/kg, 18 h).
`C[C@@H](O)CCOC(=O)C[C@@H](C)O` has a metabolite level of -3.37 ± 0.78 µmol/L (measured: C10:1 acylcarnitine; human, plasma; 60 min, log2-transformed values).
The EC50 of `CC1(C)CCC(CN2CCN(c3ccc(C(=O)NS(=O)(=O)c4ccc(NCC5CCOCC5)c([N+](=O)[O-])c4)c(Oc4cnc5[nH]ccc5c4)c3)CC2)=C(c2ccc(Cl)cc2)C1` is reported as 176 nM (cell killing, flow cytometry PI exclusion; canine blood CD21+ B cells, dog 30; 24 h).
Under “ear thickness difference”, `CCOc1cc([C@@H](CS(C)(=O)=O)N2C(=O)c3cccc(NC(C)=O)c3C2=O)ccc1OC` is recorded as -0.0839 (Balb/c mice, oxazolone atopic dermatitis; day 11, unit not given; reference: vehicle).
`O=C(O)CNC(=O)Cc1ccccc1` has a sarcomere length of 1.72 µm (ventricular cardiomyocytes, C57BL/6 mouse; dose not given, 0.036 s).
For `c1ccc(-c2n[nH]cc2-c2ccnc3ccccc23)nc1`, “log2 fold change” read 0.728 (kinase binding, competitor, MIB/MS competition, measured: NIK1; Candida albicans cell lysate; 100 nM; reference: DMSO).
`OC(CCN1CCCCC1)(c1ccccc1)C1CC2C=CC1C2` (stereo not shown) — result for “EEG Alpha1-power Pz-O2”: 6.6 µV² (resting-state EEG; healthy elderly humans; oral, 2 mg, eyes open, LS mean).
Under “placebo-adjusted total Abeta change”, `Cc1cn(-c2ccc3n(c2=O)CCN([C@@H](C)[C@@H]2CC[C@H](c4cc(F)c(Cl)cc4C(F)(F)F)O2)C3=O)cn1` is recorded as 7.97% (human, CSF; 150 mg, at Tmax, single dose; reference: baseline).
`C=CCn1c(=O)c2cnc(Nc3ccc(N4CCN(C)CC4)cc3)nc2n1-c1ccc2c(n1)[C@@](O)(CC)CC2` — result for “tumour growth inhibition”: 60% (LS-411N xenograft, BALB/c nude mice; oral, 80 mg/kg once daily x 19, day 18; reference: vehicle).
`O=S(=O)(NCCNC/C=C/c1ccc(Br)cc1)c1cccc2cnccc12`: “embryos reaching 4-cell” 0% (mouse zygotes; 20 µM, 48 h post-hCG).
`CC(C)C[C@H](NC(=O)[C@@H](Cc1c[nH]c2ccccc12)NC(=O)[C@H](Cc1ccc(O)cc1)NC(=O)[C@H](CO)NC(=O)[C@H](Cc1c[nH]c2ccccc12)NC(=O)[C@H](Cc1c[nH]cn1)NC(=O)[C@@H]1CCC(=O)N1)C(=O)N[C@@H](CCCNC(=N)N)C(=O)N1CCC[C@H]1C(=O)NCC(N)=O` — result for “girls at breast stage”: 44% (Chinese girls, central precocious puberty; intramuscular, 22.5 mg day 1, month 6, month 6, Tanner stage II).
`O=C1Nc2ccccc2C1=Cc1ccccn1` — result for “occlusion time prolongation”: 22.4% (ferric chloride carotid thrombosis; rat; oral, 2.8 mg/kg, 2 h before thrombosis).
With `CN1CC[C@@H](c2c(O)cc(O)c3c(=O)cc(-c4ccc(C(F)(F)F)cc4Cl)oc23)[C@@H]1CO` the nadir SPD was 10.5 cm² (human; concentration not given, 110 days therapy).
For `CC(C)NCC(O)c1ccc(O)c(O)c1` (stereo not shown), the sarcomere length was 1.72 µm (ventricular cardiomyocytes, C57BL/6 mouse; dose not given, 0.02 s).
Under “change from baseline”, `NC(=O)c1cnc2[nH]ccc2c1N[C@@H]1[C@@H]2CC3C[C@H]1C[C@@](O)(C3)C2` is recorded as 0.55% (flow cytometry, measured: CD4+ central memory T cells; Japanese healthy subjects, peripheral blood; oral, 10 mg twice daily, day 7).
For `CCCCC1(CCCC)CN(c2ccccc2)c2cc(SC)c(OCC(=O)N[C@@H](C(=O)NCC(=O)O)c3ccccc3)cc2S(=O)(=O)C1`, the plasma C4 was 70 ng/mL (measured: 7α-hydroxy-4-cholesten-3-one; human, plasma; 20 mg once daily, day 8).
Under “tracer distribution volume”, `O=C(OC(C(F)(F)F)C(F)(F)F)N1CCN(Cc2cccc(Oc3ccccc3)c2)CC1` is recorded as 1.17 mL/cm3 (PET; rhesus monkey, hippocampus; intravenous, 0.3 mg/kg, pretreatment blocking, added: [18F]T-401).
`Cn1cc(Nc2nccc(-c3ccc4c(c3)CN(C3COC3)CC[C@H]4NC(=O)c3cn(C(C)(C)C)nn3)n2)cn1` — result for “pathway activation z-score”: 0 (measured: tRNA splicing; splenic B cells, mice; 30 mg/kg, IgD-activated in vivo; reference: vehicle, direction not given).
`Cc1oncc1C(=O)Nc1ccc(C(F)(F)F)cc1`: “blood concentration increase” 13 fold (measured: dihydroorotate; CD-1 mouse, female, whole blood; oral, 30 mg/kg, 240 h on day 10; reference: vehicle).
For `N#Cc1ccc2c(-c3ccncc3)c(-c3ccc(F)cc3)nn2c1`, “log2 fold change” read -0.00487 (kinase binding, competitor, MIB/MS competition, measured: CAK1; Candida albicans cell lysate; 1 µM; reference: DMSO).
For `C[C@H]1C[C@H]2CSC(N)=N[C@@]2(c2nc(NC(=O)c3ccc(OC(F)F)cn3)cs2)CO1`, “percent change from baseline” read -72.2% (measured: Aβx-40; healthy adults, plasma; 275 mg once daily, day 7; reference: placebo).
`N#Cc1ccc2c(c1)[C@H]1CCCN(C(=O)c3ccc4[nH]cnc4c3)[C@H]1C2`: “change from baseline” 1.47 nmol/L (measured: androstenedione; human female, Phase II trial; oral, 80 mg once daily, HPA axis, mean).
For `O=C([O-])CN1CCN(CC(=O)[O-])CCN(CC(=O)O)CCN(CC(=O)[O-])CC1.[Gd+3]`, “T1 relaxation time” read 483 ms (mouse serum; 0.3 mM, 25 °C, 7 T).
`Cc1n[nH]c2ccc(-c3cc(OC[C@@H](N)Cc4ccccc4)cnc3-c3ccoc3)cc12` — result for “log2 fold change”: -0.323 (kinase binding, competitor, MIB/MS competition, measured: IKS1; Candida albicans cell lysate; 100 nM; reference: DMSO).
`C[C@H]1O[C@@H](O[C@H]2CC[C@@]3(C)[C@@H](CC[C@]4(C)[C@@H]3C=C[C@]35OC[C@@]6(CCC(C)(C)C[C@H]63)[C@@H](O)C[C@]54C)[C@]2(C)CO)[C@H](O)[C@@H](O[C@@H]2O[C@H](CO)[C@@H](O)[C@H](O)[C@H]2O)[C@H]1O` gave a protein level of 0.92 and 1.38 and 0.941 (Western blot, measured: PPARα; chronic-plus-binge ethanol-fed mice, liver; dose not given, high dose, unit not given; reference: β-actin).
`C[C@@H](NC(=O)N1C(=O)[C@H](Cc2ccnc(N)c2)[C@H]1C(=O)O)C1CCCCC1`: “time to aPTT Emax” 48 h (human; iv infusion, 0.6 mg/kg/h, 24 h; reference: baseline).
`N#Cc1ccc(Oc2ccc3c(c2)COB3O)cc1` — result for “ear thickness difference”: -0.228 (Balb/c mice, oxazolone atopic dermatitis; day 14, unit not given; reference: vehicle).
Under “GSEA enrichment score”, `CN(C)C(=O)c1cc2cnc(Nc3ccc(N4CCNCC4)cn3)nc2n1C1CCCC1` is recorded as -0.3 (RNA-seq GSEA, measured: HALLMARK_COMPLEMENT; MB002 tumour; concentration not given, in vivo; reference: vehicle, direction not given).
`CCO[C@H]1CCN(Cc2c(OC)cc(C)c3[nH]ccc23)[C@H](c2ccc(C(=O)O)cc2)C1` — result for “C3d-positive type III RBCs”: -1% (PNH patients, blood; oral, 25 mg then 100 mg, week 12, mean absolute change; reference: baseline).
`C[C@H](Oc1ccc(Br)cc1-c1ccon1)C(=O)O` — result for “difference from placebo”: 0.618% (muscle velocity recovery cycle; human, tibialis anterior muscle; 200 mg once daily, first response peak at 15 Hz, multiple ascending dose).

A few entries again:
With `Cn1cc([C@H]2C[C@H]3CSC(N)=N[C@@]3(c3ccc(F)cc3F)CO2)cn1` the Aβ40 level was 2 ng/mL (measured: Aβx-40; Mus musculus wild-type, cerebrospinal fluid; subcutaneous, 10 mg/kg, 18 h).
`C[C@@H](O)CCOC(=O)C[C@@H](C)O` has a metabolite level of -3.37 ± 0.78 µmol/L (measured: C10:1 acylcarnitine; human, plasma; 60 min, log2-transformed values).
The EC50 of `CC1(C)CCC(CN2CCN(c3ccc(C(=O)NS(=O)(=O)c4ccc(NCC5CCOCC5)c([N+](=O)[O-])c4)c(Oc4cnc5[nH]ccc5c4)c3)CC2)=C(c2ccc(Cl)cc2)C1` is reported as 176 nM (cell killing, flow cytometry PI exclusion; canine blood CD21+ B cells, dog 30; 24 h).
